Assay results gathered from unrelated publications.
Parts stem from different laboratories: compare values within a part only.
Chain of UniProt Q9Y2I7 (whole entry, looked up): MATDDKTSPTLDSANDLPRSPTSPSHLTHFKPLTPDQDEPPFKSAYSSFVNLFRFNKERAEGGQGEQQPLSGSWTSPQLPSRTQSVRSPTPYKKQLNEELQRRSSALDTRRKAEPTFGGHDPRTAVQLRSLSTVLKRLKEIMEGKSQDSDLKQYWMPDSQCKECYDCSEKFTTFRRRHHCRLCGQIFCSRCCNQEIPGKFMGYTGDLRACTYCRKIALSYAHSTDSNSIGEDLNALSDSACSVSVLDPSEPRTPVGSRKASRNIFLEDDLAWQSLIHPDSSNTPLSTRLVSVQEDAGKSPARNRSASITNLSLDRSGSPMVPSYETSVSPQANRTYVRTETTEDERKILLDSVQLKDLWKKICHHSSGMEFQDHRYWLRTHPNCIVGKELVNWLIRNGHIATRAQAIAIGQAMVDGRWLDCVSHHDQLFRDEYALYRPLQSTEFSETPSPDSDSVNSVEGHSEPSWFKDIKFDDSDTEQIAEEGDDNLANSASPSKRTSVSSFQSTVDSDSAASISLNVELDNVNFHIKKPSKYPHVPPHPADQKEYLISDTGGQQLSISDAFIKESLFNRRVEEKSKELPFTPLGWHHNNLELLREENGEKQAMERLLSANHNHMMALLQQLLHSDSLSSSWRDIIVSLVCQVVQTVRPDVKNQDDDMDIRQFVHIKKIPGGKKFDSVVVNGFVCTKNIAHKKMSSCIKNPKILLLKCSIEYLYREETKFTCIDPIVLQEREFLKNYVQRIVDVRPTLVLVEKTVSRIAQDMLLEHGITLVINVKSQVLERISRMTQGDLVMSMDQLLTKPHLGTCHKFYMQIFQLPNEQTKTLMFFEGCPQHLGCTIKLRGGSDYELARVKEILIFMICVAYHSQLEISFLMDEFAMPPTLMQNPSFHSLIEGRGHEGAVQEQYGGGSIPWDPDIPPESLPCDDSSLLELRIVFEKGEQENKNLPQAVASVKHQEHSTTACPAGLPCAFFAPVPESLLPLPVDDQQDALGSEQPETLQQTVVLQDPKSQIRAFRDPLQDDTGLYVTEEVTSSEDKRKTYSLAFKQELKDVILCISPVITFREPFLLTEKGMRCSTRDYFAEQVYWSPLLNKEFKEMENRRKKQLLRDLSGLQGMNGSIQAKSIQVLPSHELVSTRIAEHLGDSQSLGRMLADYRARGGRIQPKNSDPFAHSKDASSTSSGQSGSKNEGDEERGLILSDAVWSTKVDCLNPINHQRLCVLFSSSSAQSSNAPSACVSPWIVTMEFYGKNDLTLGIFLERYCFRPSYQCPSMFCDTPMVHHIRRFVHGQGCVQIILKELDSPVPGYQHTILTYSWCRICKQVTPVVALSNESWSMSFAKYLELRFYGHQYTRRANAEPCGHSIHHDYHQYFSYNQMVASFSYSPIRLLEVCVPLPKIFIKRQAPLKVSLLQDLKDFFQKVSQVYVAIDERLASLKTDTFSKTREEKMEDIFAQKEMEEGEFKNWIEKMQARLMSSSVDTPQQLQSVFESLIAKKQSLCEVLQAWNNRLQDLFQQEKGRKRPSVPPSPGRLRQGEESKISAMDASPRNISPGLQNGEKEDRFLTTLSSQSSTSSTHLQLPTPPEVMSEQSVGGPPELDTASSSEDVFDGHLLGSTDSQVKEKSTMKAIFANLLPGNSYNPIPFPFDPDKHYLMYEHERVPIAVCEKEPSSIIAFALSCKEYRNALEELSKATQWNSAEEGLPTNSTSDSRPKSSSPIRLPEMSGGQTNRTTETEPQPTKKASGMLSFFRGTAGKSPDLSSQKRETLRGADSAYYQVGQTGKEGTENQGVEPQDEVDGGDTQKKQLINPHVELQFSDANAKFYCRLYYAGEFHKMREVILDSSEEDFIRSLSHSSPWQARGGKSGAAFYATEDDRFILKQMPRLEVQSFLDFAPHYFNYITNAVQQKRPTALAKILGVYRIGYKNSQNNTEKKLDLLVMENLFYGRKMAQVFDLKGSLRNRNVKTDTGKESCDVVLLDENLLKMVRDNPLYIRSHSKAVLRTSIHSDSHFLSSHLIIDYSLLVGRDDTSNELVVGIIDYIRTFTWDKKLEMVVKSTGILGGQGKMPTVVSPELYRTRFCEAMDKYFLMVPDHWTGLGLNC
Chain of UniProt P78362 (whole entry, looked up): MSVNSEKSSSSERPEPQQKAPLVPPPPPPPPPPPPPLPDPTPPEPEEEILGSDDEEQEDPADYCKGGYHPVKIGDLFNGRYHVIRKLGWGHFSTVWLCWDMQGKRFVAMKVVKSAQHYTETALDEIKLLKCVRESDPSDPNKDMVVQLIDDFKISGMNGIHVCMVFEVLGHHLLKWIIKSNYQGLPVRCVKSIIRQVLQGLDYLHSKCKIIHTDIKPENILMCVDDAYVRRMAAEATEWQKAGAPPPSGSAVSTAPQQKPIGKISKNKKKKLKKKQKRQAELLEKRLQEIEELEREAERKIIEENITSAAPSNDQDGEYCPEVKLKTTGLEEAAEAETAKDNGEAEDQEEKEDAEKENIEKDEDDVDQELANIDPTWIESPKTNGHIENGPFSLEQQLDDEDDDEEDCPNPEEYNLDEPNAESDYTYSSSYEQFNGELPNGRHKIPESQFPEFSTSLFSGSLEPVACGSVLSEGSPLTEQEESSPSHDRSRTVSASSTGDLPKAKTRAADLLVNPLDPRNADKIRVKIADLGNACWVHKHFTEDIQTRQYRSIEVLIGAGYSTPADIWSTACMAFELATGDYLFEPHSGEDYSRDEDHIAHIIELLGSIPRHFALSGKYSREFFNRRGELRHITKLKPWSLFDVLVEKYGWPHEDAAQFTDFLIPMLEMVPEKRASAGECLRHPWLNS
Chain of UniProt Q9H4A3 (whole entry, looked up): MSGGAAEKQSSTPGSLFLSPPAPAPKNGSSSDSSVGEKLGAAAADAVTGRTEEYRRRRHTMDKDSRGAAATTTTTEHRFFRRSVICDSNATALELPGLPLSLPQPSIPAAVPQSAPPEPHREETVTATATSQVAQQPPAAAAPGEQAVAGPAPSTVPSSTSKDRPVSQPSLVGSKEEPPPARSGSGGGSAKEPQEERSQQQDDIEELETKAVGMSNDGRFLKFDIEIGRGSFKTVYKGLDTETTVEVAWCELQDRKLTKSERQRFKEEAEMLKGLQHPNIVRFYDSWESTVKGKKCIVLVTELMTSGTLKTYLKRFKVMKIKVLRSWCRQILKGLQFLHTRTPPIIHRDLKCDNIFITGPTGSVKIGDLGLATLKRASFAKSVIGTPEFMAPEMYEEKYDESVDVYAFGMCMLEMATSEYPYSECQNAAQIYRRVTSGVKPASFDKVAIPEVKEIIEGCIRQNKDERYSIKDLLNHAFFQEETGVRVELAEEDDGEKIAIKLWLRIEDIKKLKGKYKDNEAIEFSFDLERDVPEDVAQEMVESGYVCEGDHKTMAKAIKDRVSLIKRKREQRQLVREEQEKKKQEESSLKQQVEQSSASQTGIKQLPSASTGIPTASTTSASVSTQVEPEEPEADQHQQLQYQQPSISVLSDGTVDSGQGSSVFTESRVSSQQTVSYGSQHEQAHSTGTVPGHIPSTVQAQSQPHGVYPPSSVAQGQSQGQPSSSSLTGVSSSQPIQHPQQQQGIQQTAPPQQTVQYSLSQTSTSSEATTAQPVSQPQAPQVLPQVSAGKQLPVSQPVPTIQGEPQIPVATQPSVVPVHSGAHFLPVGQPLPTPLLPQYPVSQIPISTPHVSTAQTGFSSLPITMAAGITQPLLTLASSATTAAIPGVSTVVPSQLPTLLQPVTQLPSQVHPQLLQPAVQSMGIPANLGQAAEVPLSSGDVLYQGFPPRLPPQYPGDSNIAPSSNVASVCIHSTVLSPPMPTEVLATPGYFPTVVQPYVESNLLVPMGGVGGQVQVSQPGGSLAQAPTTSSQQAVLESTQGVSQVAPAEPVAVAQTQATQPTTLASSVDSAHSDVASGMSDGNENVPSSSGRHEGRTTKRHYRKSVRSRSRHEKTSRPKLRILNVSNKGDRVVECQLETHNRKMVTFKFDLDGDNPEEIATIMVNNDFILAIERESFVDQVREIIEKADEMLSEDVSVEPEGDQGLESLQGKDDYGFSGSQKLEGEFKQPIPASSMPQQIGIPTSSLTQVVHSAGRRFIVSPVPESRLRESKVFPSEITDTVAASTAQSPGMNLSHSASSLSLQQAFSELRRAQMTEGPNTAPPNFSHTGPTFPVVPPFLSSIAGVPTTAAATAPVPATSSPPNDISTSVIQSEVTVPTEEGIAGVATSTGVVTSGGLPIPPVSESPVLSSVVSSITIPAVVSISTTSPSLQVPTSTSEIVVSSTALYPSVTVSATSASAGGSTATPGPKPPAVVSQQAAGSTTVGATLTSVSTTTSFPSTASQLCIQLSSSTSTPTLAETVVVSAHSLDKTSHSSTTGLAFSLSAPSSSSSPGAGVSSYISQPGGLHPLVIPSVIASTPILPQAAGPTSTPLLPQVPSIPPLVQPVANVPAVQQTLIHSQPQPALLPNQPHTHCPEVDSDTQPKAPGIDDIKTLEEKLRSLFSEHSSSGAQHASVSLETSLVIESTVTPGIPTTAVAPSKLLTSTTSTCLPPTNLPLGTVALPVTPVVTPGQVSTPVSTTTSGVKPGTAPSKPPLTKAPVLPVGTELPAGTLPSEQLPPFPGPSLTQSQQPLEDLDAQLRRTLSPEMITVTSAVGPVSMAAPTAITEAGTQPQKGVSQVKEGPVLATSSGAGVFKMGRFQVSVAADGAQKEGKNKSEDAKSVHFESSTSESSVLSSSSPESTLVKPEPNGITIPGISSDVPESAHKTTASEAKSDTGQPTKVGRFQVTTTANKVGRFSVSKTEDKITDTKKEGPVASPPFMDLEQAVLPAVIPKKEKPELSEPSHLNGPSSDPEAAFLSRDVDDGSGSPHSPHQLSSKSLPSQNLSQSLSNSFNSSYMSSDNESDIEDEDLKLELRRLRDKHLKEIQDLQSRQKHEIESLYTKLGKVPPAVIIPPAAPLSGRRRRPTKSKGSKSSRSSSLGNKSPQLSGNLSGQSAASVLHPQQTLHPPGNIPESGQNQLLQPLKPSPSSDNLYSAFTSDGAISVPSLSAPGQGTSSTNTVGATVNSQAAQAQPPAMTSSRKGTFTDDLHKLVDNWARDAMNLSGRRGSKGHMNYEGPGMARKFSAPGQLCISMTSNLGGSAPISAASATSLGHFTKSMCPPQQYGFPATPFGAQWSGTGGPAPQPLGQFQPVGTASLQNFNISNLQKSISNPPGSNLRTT

Series 1
SMILES: Cc1noc([C@H]2C[C@@H](c3ccc(C(F)(F)F)cc3)CN(C(=O)N3CCS(=O)(=O)C3)C2)n1
Effect on: cell-free assay
Method: competition with immobilised ligand
Tested at: 1 µM
The remaining binding was 86% (Serine/threonine-protein kinase WNK1 (WNK1, Homo sapiens, UniProt Q9H4A3)).
The remaining binding was 100% (Rho-associated protein kinase 1 (ROCK1, Homo sapiens, UniProt Q13464)).
The remaining binding was 100% (1-phosphatidylinositol 3-phosphate 5-kinase (PIKFYVE, Homo sapiens, UniProt Q9Y2I7)).
The remaining binding was 100% (Serine/threonine-protein kinase DCLK3 (DCLK3, Homo sapiens, UniProt Q9C098)).
For SRSF protein kinase 2 (SRPK2, Homo sapiens, UniProt P78362): remaining binding read 100%.

Series 2
Organism: Sarcocystis neurona
Effect on: parasite growth
Tested at: 10 µM
Time: 96 h
Notes: second screen
Baseline: untreated
`CC(C)n1c(/C=C/C(O)CC(O)CC(=O)O)c(-c2ccc(F)cc2)c2ccccc21` (centres unmarked): “log2 fold change” 0.49.
Under “log2 fold change”, `COCc1c(C(C)C)nc(C(C)C)c(/C=C/[C@@H](O)C[C@@H](O)CC(=O)O)c1-c1ccc(F)cc1` is recorded as -0.54.
Under “log2 fold change”, `Cn1c(=O)c2[nH]cnc2n(C)c1=O` is recorded as 0.13.
For `Cc1ccc(N(CC2=NCCN2)c2cccc(O)c2)cc1`, “log2 fold change” read 0.29.
`CCc1oc2ccccc2c1C(=O)c1cc(Br)c(O)c(Br)c1` — result for “log2 fold change”: -0.0261.
For `COc1cc(C)c(Cc2cnc(N)nc2N)cc1OC`, “log2 fold change” read -0.87.

Series 3
Target: Serine/threonine-protein kinase Nek11 (NEK11, Homo sapiens, UniProt Q8NG66)
Effect on: enzyme activity
Mode: inhibitor
Tested at: 0.5 µM
Baseline: control
Target sequence (Q8NG66 1-645): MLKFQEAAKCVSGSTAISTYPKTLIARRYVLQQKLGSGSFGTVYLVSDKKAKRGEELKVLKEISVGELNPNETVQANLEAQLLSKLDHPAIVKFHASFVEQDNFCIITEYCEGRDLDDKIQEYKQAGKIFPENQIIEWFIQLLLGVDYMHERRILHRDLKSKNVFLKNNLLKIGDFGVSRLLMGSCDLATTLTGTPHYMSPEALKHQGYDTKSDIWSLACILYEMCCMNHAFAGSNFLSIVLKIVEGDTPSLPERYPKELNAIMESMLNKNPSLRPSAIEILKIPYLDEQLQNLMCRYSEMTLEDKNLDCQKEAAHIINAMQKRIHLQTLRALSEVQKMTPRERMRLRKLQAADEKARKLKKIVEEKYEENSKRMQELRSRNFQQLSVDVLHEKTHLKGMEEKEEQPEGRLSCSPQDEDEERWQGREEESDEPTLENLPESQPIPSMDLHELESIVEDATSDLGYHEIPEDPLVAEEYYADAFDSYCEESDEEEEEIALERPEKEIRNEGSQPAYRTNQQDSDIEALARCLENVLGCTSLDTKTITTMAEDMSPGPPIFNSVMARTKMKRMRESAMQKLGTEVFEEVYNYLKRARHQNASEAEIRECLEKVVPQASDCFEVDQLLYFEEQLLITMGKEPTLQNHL
With `CN(C)c1ccc(C=C2C(=O)Nc3ccccc32)cc1` the remaining activity was 96.4%.
For `CC(C)[C@H](CO)Nc1nc(Nc2cc(N)cc(Cl)c2)c2ncn(C(C)C)c2n1`, the remaining activity was 84.2%.
`OCC(O)CCON=C1C(c2c(O)[nH]c3ccccc23)=Nc2ccccc21` (centres unmarked) has a remaining activity of 92.2%.
`CNC(=O)c1cc(Oc2ccc(NC(=O)Nc3ccc(Cl)c(C(F)(F)F)c3)cc2)ccn1` gave a remaining activity of 105%.
The remaining activity of `Nc1ccc2ncnc(NCCc3ccc(Oc4ccccc4)cc3)c2c1` is reported as 105%.
The remaining activity of `Cc1cccc(-c2[nH]c(C(C)(C)C)nc2-c2ccc3c(c2)OCO3)n1` is reported as 90.3%.
With `Nc1ncnc2n[nH]c(Nc3ccc(F)cc3)c12` the remaining activity was 102%.
`O=c1c2ccccc2[nH]c(=S)n1CCN1CCC(=C(c2ccc(F)cc2)c2ccc(F)cc2)CC1` gave a remaining activity of 94%.
With `O=S(=O)(c1cccc2cnccc12)N1CCCNCC1` the remaining activity was 114%.
For `O=C1NC(=O)C(c2cn(CCCn3ccnc3)c3ccccc23)=C1Nc1ccccc1`, the remaining activity was 75.6%.
The remaining activity of `COc1ccc(C(=O)Nc2sc3c(c2C(N)=O)CCCC3)cc1OC` is reported as 102%.
For `Cn1sc(=O)n(Cc2ccccc2)c1=O`, the remaining activity was 102%.
`CO[C@H]1C[C@@H]2CC[C@@H](C)[C@@](O)(O2)C(=O)C(=O)N2CCCC[C@H]2C(=O)O[C@H]([C@H](C)C[C@@H]2CC[C@@H](O)[C@H](OC)C2)CC(=O)[C@H](C)/C=C(\C)[C@@H](O)[C@@H](OC)C(=O)[C@H](C)C[C@H](C)/C=C/C=C/C=C/1C` has a remaining activity of 73.6%.
For `N#CC(C#N)=C(N)/C(C#N)=C/c1ccc(O)cc1`, the remaining activity was 97.2%.
The remaining activity of `Oc1ccc(-c2nc(-c3ccncc3)c(-c3ccc(F)cc3)[nH]2)cc1` is reported as 80.6%.

Series 4
Host: human
Matrix: microsomes or S9
Tested at: 2 µM
Time: 0.5 h
With `CC(CCc1ccco1)NC(=O)c1cc(S(=O)(=O)N(C)C)c(Cl)cc1Cl` (centres unmarked) the remaining compound was 3.06%.
With `O=C(c1ccccc1)c1cc(Cl)ccc1Nc1cccc2c1N(c1ncccn1)CCC2` the remaining compound was 1.33%.
`N#Cc1cccn2cc(-c3cccc(Br)c3)nc12` has a remaining compound of 7.6%.
`CNc1nc(Nc2ccccc2C)c(C#N)c2c1COC(C)(C)C2` gave a remaining compound of 7.81%.
With `Cc1nn2cnnc2c(C)c1CCC(=O)Nc1nccs1` the remaining compound was 13.3%.
`CC(=O)c1ccc(/C=C/c2ccc(C(C)(C)C)cc2)n1C` gave a remaining compound of > 100%.
